Published values gathered from unrelated publications.
A part holds a random share of what one study measured. “And” joins repeats or separate records; there may be more than shown.
Chain of UniProt Q02156 (whole entry, looked up): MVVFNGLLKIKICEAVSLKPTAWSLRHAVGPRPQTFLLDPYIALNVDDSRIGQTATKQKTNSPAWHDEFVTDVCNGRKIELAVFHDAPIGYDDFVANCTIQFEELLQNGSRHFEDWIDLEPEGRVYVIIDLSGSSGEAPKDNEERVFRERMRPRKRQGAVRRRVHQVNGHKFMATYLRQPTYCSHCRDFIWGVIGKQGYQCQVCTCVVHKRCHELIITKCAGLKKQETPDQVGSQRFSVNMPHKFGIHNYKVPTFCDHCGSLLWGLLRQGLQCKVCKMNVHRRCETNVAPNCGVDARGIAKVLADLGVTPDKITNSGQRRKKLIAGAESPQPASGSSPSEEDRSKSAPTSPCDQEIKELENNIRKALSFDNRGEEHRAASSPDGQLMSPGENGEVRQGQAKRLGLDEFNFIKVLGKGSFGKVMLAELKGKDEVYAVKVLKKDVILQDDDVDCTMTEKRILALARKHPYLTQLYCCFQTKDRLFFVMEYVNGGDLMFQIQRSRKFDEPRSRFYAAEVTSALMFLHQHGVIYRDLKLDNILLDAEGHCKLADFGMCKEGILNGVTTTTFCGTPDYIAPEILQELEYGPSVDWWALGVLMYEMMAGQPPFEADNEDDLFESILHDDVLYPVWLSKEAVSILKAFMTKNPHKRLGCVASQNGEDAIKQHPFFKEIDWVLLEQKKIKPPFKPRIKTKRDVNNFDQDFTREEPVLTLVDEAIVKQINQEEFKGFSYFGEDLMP
Chain of UniProt O00141 (whole entry, looked up): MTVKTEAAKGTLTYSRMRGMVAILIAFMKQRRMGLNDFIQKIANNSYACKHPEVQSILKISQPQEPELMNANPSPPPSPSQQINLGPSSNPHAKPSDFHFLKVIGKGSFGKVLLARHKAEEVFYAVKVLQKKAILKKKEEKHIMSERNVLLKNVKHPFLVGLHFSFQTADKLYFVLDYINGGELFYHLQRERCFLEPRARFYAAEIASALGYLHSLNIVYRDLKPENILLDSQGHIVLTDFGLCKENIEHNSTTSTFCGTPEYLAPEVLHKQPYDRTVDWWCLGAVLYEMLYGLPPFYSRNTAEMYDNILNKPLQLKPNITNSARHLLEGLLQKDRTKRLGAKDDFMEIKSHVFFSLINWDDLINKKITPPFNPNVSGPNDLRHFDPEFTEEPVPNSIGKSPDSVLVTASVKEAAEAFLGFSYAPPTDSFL
Chain of UniProt Q9UPE1 (whole entry, looked up): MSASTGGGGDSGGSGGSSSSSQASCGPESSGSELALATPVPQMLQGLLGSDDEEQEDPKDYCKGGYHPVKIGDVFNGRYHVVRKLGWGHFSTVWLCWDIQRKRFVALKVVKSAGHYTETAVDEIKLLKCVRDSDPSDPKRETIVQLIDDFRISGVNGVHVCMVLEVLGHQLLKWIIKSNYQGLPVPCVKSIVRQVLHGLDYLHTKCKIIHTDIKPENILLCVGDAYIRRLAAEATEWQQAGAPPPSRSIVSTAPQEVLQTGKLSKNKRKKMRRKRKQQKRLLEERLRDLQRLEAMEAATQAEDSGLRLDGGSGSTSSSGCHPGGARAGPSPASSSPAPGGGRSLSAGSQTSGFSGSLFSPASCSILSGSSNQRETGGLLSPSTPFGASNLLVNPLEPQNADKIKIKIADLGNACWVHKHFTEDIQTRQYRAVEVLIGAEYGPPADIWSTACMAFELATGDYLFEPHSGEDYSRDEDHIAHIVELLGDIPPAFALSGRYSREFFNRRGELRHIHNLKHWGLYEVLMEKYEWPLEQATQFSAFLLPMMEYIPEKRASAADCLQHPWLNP
Chain of UniProt Q15746 (whole entry, looked up): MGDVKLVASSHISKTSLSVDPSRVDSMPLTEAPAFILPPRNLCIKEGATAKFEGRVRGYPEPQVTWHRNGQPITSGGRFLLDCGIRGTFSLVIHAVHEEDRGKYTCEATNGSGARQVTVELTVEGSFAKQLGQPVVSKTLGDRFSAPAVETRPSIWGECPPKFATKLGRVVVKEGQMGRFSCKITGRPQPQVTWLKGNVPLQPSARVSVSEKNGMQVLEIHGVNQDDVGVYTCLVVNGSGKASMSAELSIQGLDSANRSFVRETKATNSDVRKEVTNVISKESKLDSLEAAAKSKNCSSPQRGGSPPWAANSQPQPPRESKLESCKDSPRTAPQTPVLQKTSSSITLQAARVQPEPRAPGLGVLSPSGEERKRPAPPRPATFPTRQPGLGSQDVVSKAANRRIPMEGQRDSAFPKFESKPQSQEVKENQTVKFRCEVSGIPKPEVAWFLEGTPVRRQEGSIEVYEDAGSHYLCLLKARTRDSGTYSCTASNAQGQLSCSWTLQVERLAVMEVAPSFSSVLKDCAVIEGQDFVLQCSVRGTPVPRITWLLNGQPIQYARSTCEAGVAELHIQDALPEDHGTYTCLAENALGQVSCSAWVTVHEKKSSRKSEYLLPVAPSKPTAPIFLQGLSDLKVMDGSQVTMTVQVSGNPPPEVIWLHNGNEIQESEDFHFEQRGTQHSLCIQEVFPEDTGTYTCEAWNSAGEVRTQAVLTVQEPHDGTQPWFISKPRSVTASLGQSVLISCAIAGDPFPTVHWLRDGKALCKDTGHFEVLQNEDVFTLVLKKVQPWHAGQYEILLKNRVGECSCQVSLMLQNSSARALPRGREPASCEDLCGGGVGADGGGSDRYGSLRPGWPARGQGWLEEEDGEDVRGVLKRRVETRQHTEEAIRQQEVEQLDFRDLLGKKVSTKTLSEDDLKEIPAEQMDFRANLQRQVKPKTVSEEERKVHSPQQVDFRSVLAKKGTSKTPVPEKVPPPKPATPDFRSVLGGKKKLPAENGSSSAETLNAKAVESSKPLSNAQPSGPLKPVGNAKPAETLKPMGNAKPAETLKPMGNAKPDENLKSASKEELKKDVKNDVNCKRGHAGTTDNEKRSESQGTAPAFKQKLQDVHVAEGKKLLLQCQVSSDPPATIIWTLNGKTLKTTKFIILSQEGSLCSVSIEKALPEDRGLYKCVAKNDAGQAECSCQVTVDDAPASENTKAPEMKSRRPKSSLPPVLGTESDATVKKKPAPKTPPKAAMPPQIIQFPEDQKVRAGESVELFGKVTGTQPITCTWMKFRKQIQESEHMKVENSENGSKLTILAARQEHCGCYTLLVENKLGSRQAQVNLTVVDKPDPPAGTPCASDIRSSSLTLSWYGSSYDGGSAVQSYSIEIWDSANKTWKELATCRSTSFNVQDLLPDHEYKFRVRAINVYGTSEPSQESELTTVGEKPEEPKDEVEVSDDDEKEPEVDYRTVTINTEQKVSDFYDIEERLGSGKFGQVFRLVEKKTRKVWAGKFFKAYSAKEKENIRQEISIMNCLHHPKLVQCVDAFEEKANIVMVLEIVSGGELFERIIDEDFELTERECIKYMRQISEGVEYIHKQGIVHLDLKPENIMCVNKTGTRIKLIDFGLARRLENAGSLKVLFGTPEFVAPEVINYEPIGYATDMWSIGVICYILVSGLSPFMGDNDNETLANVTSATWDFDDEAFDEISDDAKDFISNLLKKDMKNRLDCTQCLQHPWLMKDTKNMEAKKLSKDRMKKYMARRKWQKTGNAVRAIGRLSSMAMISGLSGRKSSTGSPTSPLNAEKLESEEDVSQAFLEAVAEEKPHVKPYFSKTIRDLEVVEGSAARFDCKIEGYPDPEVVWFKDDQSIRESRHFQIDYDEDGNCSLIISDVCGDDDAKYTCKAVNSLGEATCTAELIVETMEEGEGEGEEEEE
Chain of UniProt P41240 (whole entry, looked up): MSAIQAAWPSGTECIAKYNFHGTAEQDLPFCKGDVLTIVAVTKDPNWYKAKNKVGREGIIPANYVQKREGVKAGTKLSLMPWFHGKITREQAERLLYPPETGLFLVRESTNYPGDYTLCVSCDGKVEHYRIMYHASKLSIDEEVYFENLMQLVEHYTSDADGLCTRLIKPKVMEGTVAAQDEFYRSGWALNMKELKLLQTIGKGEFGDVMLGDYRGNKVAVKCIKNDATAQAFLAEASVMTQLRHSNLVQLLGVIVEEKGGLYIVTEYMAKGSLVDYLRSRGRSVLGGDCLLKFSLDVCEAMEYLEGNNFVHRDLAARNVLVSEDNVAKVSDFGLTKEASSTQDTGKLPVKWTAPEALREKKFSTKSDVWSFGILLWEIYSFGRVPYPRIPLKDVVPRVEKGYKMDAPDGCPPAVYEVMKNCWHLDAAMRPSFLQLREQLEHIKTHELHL

Series 1
Organism: Sarcocystis neurona
Effect on: parasite growth
Concentration: 10 µM
Time: 96 h
Quantity: inhibition
COCC1=C(C(=O)OC(C)OC(=O)OC(C)C)N2C(=O)[C@@H](NC(=O)/C(=N\OC)c3csc(N)n3)[C@H]2SC1 (stereo partly shown): -9.2%
CC(=O)Nc1ccc(CC(=O)O)cc1: -13.7%
CO/N=C(\C(=O)N[C@@H]1C(=O)N2C(C(=O)O)=C(COC(C)=O)CS[C@H]12)c1csc(N)n1: -15.7%
COc1ccc(Cl)cc1C(=O)NCCc1ccc(S(=O)(=O)NC(=O)NC2CCCCC2)cc1: -9.1%
CC(=O)OCC(=O)[C@@]1(O)CC[C@H]2[C@@H]3C[C@H](C)C4=CC(=O)C=C[C@]4(C)[C@H]3[C@@H](O)C[C@@]21C: -8.7%
Nc1nc(O)c2ncn(COC(CO)CO)c2n1: -16.4%
Nc1nc(N)nc(-c2cc(Cl)ccc2Cl)n1: -3.5%
CC(=O)NS(=O)(=O)c1ccc(N)cc1: -11.6%
CC(=O)S[C@@H]1CC2=CC(=O)CC[C@]2(C)[C@H]2CC[C@@]3(C)[C@@H](CC[C@@]34CCC(=O)O4)[C@H]12: -2.8%
NC12CC3CC(CC(C3)C1)C2: -17.8%
O=C(NCCO[N+](=O)[O-])c1cccnc1: -18.6%
Nc1ccc(O)c(C(=O)O)c1: -15.8%
CN(C)[C@@H]1C(O)=C(C(=O)NCN2CCCC2)C(=O)[C@@]2(O)C(O)=C3C(=O)c4c(O)cccc4[C@@](C)(O)[C@H]3C[C@@H]12: -12%
COc1ccc2c(c1)c(CC(=O)O)c(C)n2C(=O)c1ccc(Cl)cc1: -6.8%
O=S(=O)(O)CCS: -8.3%

Series 2
SMILES: CCCNC(=O)Nc1ccc(Oc2ncnc3cc(OC)c(OC)cc23)cc1Cl
Effect on: enzyme activity
Action: inhibitor
Concentration: 0.5 µM
Relative to: control
Quantity: remaining activity
GSK3A (Homo sapiens, UniProt P49840): 98.8%
GRK6 (Homo sapiens, UniProt P43250): 95%
FGFR4 (Homo sapiens, UniProt P22455): 73.9%
PRKCE (Homo sapiens, UniProt Q02156): 96.8%
MYLK (Homo sapiens, UniProt Q15746): 97.4%
SGK1 (Homo sapiens, UniProt O00141): 96.2%
CSK (Homo sapiens, UniProt P41240): 100%
GRK2 (Homo sapiens, UniProt P25098): 103%
FLT3 (Homo sapiens, UniProt P36888): 82.1%
SRPK3 (Homo sapiens, UniProt Q9UPE1): 95.8%
BMX (Homo sapiens, UniProt P51813): 93.6%
PRKCG (Homo sapiens, UniProt P05129): 120%

Series 3
SMILES: CC(C)C[C@@H]1NC(=O)[C@@H](N(C)C(=O)[C@H](CC2CCC2)NC(=O)[C@@H]2C[C@@H](F)CN2C(=O)C2(C(F)(F)F)CC(F)(F)C2)CCCCNC(=O)C2(CC2)NC(=O)[C@H](Cc2cc(Cl)ccc2Cl)N(C)C1=O
Quantity: cell count
NCI-H1299; Vi-Cell counting; 2 µM, 6 days; relative to: DMSO: 0.564 and 0.3 and 0.583
NCI-H82; Vi-Cell counting; 60 nM, 6 days; relative to: DMSO: 1.02 and 0.86 and 1.08
A549; Vi-Cell counting; 60 nM, 6 days; relative to: DMSO: 0.964 and 0.948 and 0.841
NCI-H446 sgCtrl; dose-response; 125 nM, 6 d; relative to: DMSO-treated: 0.147 and 0.101 and 0.141
NCI-H446; 20 nM, 6 days; relative to: DMSO: 0.438 and 0.401 and 0.448
NCI-H1299; Vi-Cell counting; 600 nM, 6 days; relative to: DMSO: 0.646 and 0.549 and 0.587
MDA-MB-231, doxycycline-inducible E2F1; 200 nM, 6 days, no doxycycline; relative to: DMSO: 0.586 and 0.384 and 0.524
NCI-H446; Vi-Cell counting; 20 nM, 3 days, without Mps1 inhibitor; relative to: DMSO: 0.308 and 0.346
NCI-H446; Vi-Cell counting; 2 nM, 3 days, without Mps1 inhibitor; relative to: DMSO: 0.769 and 0.725
HCC4006; Vi-Cell counting; 20 nM, 6 days; relative to: DMSO: 0.992 and 1.04 and 0.872
NCI-H82; Vi-Cell counting; 6 µM, 6 days; relative to: DMSO: 0.08 and 0.15

Series 4
Cell line: normal-adjacent epithelium patient-derived organoids sample F
Method: CellTiter-Glo
Concentration: 1 µM
Relative to: DMSO
Quantity: viability
COc1cccc(NC(=O)c2nc3scc(CN(C)Cc4ccccc4)c3c(=O)[nH]2)c1: 91.7% and 106%
CCOc1cn(-c2ccc(F)cc2C)nc1C(=O)Nc1ccc(Oc2ccnc3cc(OC)c(OC)cc23)c(F)c1: 111% and 96.7%
COc1cccc2c1C(=O)c1c(O)c3c(c(O)c1C2=O)C[C@@](O)(C(=O)CO)C[C@@H]3O[C@H]1C[C@H](N)[C@H](O)[C@H](C)O1: 16.9%
COc1cc(Nc2nccc(-c3cnn4nc(OC)ccc34)n2)cc(C(F)(F)F)c1: 60.1%
Cc1ccc(NC(=O)Nc2cc(C(F)(F)F)ccc2F)cc1Nc1ccc2c(c1)NC(=O)/C2=C\c1ccc[nH]1: 64.1%
COc1ccc2c(O[C@@H]3C[C@H]4C(=O)N[C@]5(C(=O)O)CC5/C=C\CCCCC[C@H](NC(=O)OC5CCCC5)C(=O)N4C3)cc(-c3csc(NC(=O)C(C)C)n3)nc2c1C (stereo partly shown): 95.1% and 111%
CN(C)C(=O)Cn1cc(-c2ccc(-c3nnc4ccccn34)cc2)cn1: 209% and 148%
CCC(=NO)C(C)=Cc1ccc(F)c(C)c1: 103% and 113%
CCNC(=O)c1cc2c(N3CCOC[C@H]3C)ccnc2n1C: 104% and 98.1%
O=C(NCc1ccccc1)c1ccc(S(=O)(=O)NCc2ccccc2)cc1: 99.4% and 115%
Cc1cc2c(-c3ccco3)cnc(N[C@H]3CCN(C)C[C@@H]3C(=O)NC3CCCCC3)c2[nH]c1=O: 77.2%

A few entries again (series 4):
COc1cccc(NC(=O)c2nc3scc(CN(C)Cc4ccccc4)c3c(=O)[nH]2)c1: 91.7% and 106%
CCOc1cn(-c2ccc(F)cc2C)nc1C(=O)Nc1ccc(Oc2ccnc3cc(OC)c(OC)cc23)c(F)c1: 111% and 96.7%
COc1cccc2c1C(=O)c1c(O)c3c(c(O)c1C2=O)C[C@@](O)(C(=O)CO)C[C@@H]3O[C@H]1C[C@H](N)[C@H](O)[C@H](C)O1: 16.9%
COc1cc(Nc2nccc(-c3cnn4nc(OC)ccc34)n2)cc(C(F)(F)F)c1: 60.1%
Cc1ccc(NC(=O)Nc2cc(C(F)(F)F)ccc2F)cc1Nc1ccc2c(c1)NC(=O)/C2=C\c1ccc[nH]1: 64.1%
COc1ccc2c(O[C@@H]3C[C@H]4C(=O)N[C@]5(C(=O)O)CC5/C=C\CCCCC[C@H](NC(=O)OC5CCCC5)C(=O)N4C3)cc(-c3csc(NC(=O)C(C)C)n3)nc2c1C (stereo partly shown): 95.1% and 111%
CN(C)C(=O)Cn1cc(-c2ccc(-c3nnc4ccccn34)cc2)cn1: 209% and 148%
CCC(=NO)C(C)=Cc1ccc(F)c(C)c1: 103% and 113%
